# Measured values pooled from the literature.
# A part holds a random share of what one study measured.

# Study 1 — technique: RNA Bind-n-Seq; molecule type: RNA; matrix: in vitro; concentration: 365 nM; baseline: no-protein control; reading: higher = stronger binding
# Target: RNA binding protein fox-1 homolog 2, RRM domain, GST-SBP tag (RBFOX2, Homo sapiens, UniProt O43251-10, residues 100-194)
# Notes: natural RNA segment, single round, ends assumed
# Constant ends, left off below: GGGAGUUCUACAGUCCGACGAUC … UGGAAUUCUCGGGUGCCAA
# Target sequence (chain): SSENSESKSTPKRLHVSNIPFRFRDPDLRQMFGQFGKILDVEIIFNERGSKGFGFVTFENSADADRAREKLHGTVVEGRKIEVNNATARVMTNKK
Oligonucleotide,RBNS enrichment (R)
UGAACAUUUUCUUUGGCUCGUGCCAUGUUAUGAUCAUAUACCUUUUAAAUAAGGGGAAAUAGUAUCUUUAAAGUUAAUGUCUAGCCAAGAGUUUAGUAAACGAAGAAUUA,0.316
GGGGGUCUGCCUGCACACUCUGGGGAGCCAGGGGCCCCAGCACCCUCCAGGACAGGAGAUCUGGGAUGCCUGGCUGCUGGAGUACAUGUGUUCACAAGGGUUACUCCUCA,0.378
GUUCUAAAACGGGGAGUGGUCUGAAUGAACACAGCUGACCCCUUUCCCGCGCACUGAAAGGGCAGAGUAGGCCGAAGGGUCCAAGGGCCAGACUGCCUCACCCUCUGCCC,0.177
UGGCCUUCCUAGAACACUGCUUCAUAACCUCUCUGUCUGACUUCUGCAUCUCCUUCCAGGUCAGCUCAUUCACAAGAGUUGCUCCCAAGCCUGGAUGAGUUGCACCUUGC,0.488
UUUCUUCCUGUUGCUGGAUUCUCACCUCCAUGGGCCUGUCUCUUCUGCCUCUGCCUUCUGGACACCGUUUCCUCUCCGCUGCUUCAGAGAGCUUUGCCUCGCCUCCGCCU,0.314
AUAUUUGGGCAGAGCCUAAACGUGCAUGCUUGUCACUCAAACACCAGAAGUUUGAAUCAGAGGUCUGAGUGACCUCUUUUGUGGCUGUUCUUGAUGGUUUCCAGGCCUCG,2.14
UCACCAUGUCAAUUCCCCUUUUCUUAGCAACCAGUUCAAUGUUCUGCCCCUUCAAUCUUACCUUUUCCUACAAUGCCAUGUAAGUGGGGUCAGCCAUGAUGUCAUGUGUG,0.502
ACUUUGACACUGUGAAGCUCUAAGGAUACAAUAGGAAUGAAGACAGAGGAAGAAAAACUAAAGAGUCGUUUGUUCAGAGACCUGACCUUAUAAAGUUGGGGGAGCAGCUG,0.706
GUGUGUGUGCUCGCGAGCGCCAUCCACACUGGUCCUUUAGCAUUGUUUCCAUCAUAUUGCAGUGUAUGUGGGAUUUUCUGUAAAAUGGGUGUAAUUUUUCCCUUAAAAAG,0.54
GCCUUCCUCCAUUUUUAUUCAUGGCUACUUGAGAAAGCAAAAGGAAAAAAUAAUAGUUAUCAGUAGUGUCACUGGAAAGAAGAGAGGAGGGACAAAACUGAGCAGCAGAA,1.25
CUUUGAGCUUGUAACCUAGCAGCUGGGGCCAGUGAGAGGUGACUCAGACACUCCUGCCUCAGUUUCUUAGAACAGUGUUGCUAUUGAUGCUUAAGAAUAAUUGCCUCUUG,0.308
GUUCUCAUGCUGCUAUUAAAGACAUACCUGACACUGGGUAAUUUAUAAAGGAAAGAGGUUUAAUGGACUCAGUUCCACAUGGCUGGGGACGCCUCACAAUCAUGGUGGAA,0.384

# Study 2 — technique: RNA Bind-n-Seq; molecule type: RNA; matrix: in vitro; concentration: 200 nM; notes: whole 134-nt RNA, ends assumed; with: 150 mM KCl; baseline: input library; reading: higher = stronger binding
# Target: Ras GTPase-activating protein-binding protein 1, full length (G3BP1, Homo sapiens, UniProt Q13283)
# Sequence of UniProt Q13283 (whole entry, looked up): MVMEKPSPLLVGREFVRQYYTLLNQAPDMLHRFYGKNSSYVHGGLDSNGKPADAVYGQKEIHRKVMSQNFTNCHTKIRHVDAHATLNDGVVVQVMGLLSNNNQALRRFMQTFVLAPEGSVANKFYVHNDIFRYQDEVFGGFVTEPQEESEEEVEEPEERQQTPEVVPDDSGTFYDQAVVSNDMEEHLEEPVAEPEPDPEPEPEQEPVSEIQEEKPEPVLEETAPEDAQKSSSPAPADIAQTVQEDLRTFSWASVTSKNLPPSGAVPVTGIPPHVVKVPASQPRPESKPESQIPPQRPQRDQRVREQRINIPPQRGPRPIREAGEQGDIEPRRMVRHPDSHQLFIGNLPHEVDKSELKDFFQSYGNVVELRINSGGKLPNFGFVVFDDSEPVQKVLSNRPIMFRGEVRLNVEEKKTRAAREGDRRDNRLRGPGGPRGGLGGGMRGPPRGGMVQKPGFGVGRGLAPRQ
# Constant ends, left off below: GGGAGUUCUACAGUCCGACGAUC … UGGAAUUCUCGGGUGUCAAGG
Oligonucleotide,log2 enrichment
GUCCUGUGCUACACAUCGUAUGUACCGAAUCGGGAAAAAAAGGGUUUUUUUGGGUGGGAAAGUAUUAUGUUACGCCGUUCGGAUCUGCAC,-0.0143
AAGUCCUGUGCUACACAUCGUAUGUACCGAAUCAAACCCCCAAACCCAAAUUUAAAAAAGUAUUAUGUUACGCCGUUCGGAUCUGCACUU,-0.184
GUCCUGUGCUACACAUCGUAUGUACCGAAUCGGGGUUUUUGGGGAAAGGGGAAAGGGGAAAGUAUUAUGUUACGCCGUUCGGAUCUGCAC,0.624
AAGUCCUGUGCUACACAUCGUAUGUACCGAAUCGGGGUUUUGGGGUUUUGGUUUUGGAAAGUAUUAUGUUACGCCGUUCGGAUCUGCACU,-0.523
UUUGAAAAAGAAGAAAAAGAAAAAGAAGGGUAAGGCAUUAAAAAAGUCUUUAUAAAUUUUCUCCAAAAUAAAUGUUUGAUUUUAGCCCUA,-1.73
UGUGCUACACAUCGUAUGUACCGAAUCGGGGAAAAAAAGGGGUUUUUGGGGUUUUUUUGGGGAAAGUAUUAUGUUACGCCGUUCGGAUCU,-0.296
CCUCAAGUCCUGUGCUACACAUCGUAUGUACCGAAUCGGUGGAGGAAAAAGGAAAGUAUUAUGUUACGCCGUUCGGAUCUGCACUUCCAG,-0.0889
CCUGUGCUACACAUCGUAUGUACCGAAUCGGGUUUUUGGGUUUUUUUGGGUUUUUUUGGGAAAGUAUUAUGUUACGCCGUUCGGAUCUGC,-0.798
UCCUGUGCUACACAUCGUAUGUACCGAAUCAAAUUUAAACCCCCCCAAACCCCCCCAAAAAAGUAUUAUGUUACGCCGUUCGGAUCUGCA,0.129
GCCAUGCAGGUGGGCAUCUUUGGGAAGUGGGGCAAGGGGGGGAUAGGGAGGGGGGUAACACUUUGGGAACAGGUGGUCCCAGGUCGUUUC,1.32

# Study 3 — technique: protein-binding microarray; molecule type: double-stranded DNA, one strand shown; matrix: in vitro; concentration: not given; reading: higher = stronger binding
# Target: Max dimerization protein 1, bHLH-zipper, MAX partner unstated (MXD1, Homo sapiens, UniProt Q05195, residues 56-136)
# Notes: k-mer, scored over probes, only values ≥0.25
# Residues (chain): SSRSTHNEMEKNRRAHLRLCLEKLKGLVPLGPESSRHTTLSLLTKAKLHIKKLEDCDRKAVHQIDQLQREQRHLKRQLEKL
Oligonucleotide,E-score
CGTGAAAG,0.257
ACGTGGAC,0.359
ACATGACA,0.291
CAATCATG,0.26
CATGCACA,0.396
CCCCAACC,0.354
CGAGCACG,0.353
ACACGCCC,0.28
AGGGCGGG,0.261
GCACATGC,0.46
CACACGAG,0.416
ACAGGTGA,0.254
ACAACCCC,0.266
GCACGTGC,0.497
ATGTTGTC,0.264
ACACGTTA,0.394
AGGAGGGG,0.334
TCGTGTCA,0.271

# Study 4 — technique: universal PBM; molecule type: double-stranded DNA, one strand shown; matrix: in vitro; concentration: not given; reading: higher = stronger binding
# Target: Sal-like protein 4, full length isoform B (SALL4, Homo sapiens, UniProt Q9UJQ4-2, residues 1-616)
# Notes: 8-mer, flanks averaged, mean of replicates
Oligonucleotide,E-score
GTGATAGA,0.135
CAGTCTTC,-0.242
ACTAATCC,0.0842
CGGGGGTC,-0.374
AACGTTAG,0.169
CCCGTCCG,-0.401
CATCATAC,0.317
AGGGTGGG,-0.119
CATACTGA,0.159
CCTAGCGA,-0.228
CTTACTAA,0.109
CTGCGAGC,-0.169
CGGGGCAA,-0.185
CCATAACA,0.266
AGTGCTTA,0.077
AGTTTTAG,0.0209
AAGGACCC,-0.334
AGGCCAAA,-0.0617
TAGCTTCA,0.111
GTCTGTAA,0.035
AGAACACC,-0.0709
CTTAAACA,0.0461
ACGCTGTC,-0.242
GGTCGTGA,-0.00962

# Study 5 — technique: protein binding microarray; molecule type: double-stranded DNA, one strand shown; matrix: in vitro; concentration: not given; baseline: not given; reading: higher = stronger binding
# Target: Histone acetyltransferase KAT6A, winged helix 1, GST fusion (KAT6A, Homo sapiens, UniProt Q92794, residues 1-85)
# Notes: 8-mer, flanks averaged, mean of 2 arrays, mostly near background
# Residues (chain): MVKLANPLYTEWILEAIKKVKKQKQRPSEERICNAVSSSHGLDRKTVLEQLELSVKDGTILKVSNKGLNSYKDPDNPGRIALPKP
Oligonucleotide,E-score
AACAGTTC,0.0712
CCCATGCC,-0.0765
GTCGTGTA,-0.0959
GGTATGGA,-0.0257
TAGCGCGA,0.33
GCCGCAGC,0.353
ATTCGACA,-0.169
CCCGTACG,0.441
CAATCCAC,-0.202
CACCTGCG,0.0951
CGCGCACA,0.404
AAGGATAG,-0.218
CGCAAGCA,0.055
AATGTATG,0.0379
ACGCCCTC,0.252
CAGAGTAG,-0.115
